# Published values of several laboratories.
# Numbered parts are unrelated; each lists some results of a single study. ± gives the spread as reported.
# UniProt P41240, sequence (whole entry, looked up): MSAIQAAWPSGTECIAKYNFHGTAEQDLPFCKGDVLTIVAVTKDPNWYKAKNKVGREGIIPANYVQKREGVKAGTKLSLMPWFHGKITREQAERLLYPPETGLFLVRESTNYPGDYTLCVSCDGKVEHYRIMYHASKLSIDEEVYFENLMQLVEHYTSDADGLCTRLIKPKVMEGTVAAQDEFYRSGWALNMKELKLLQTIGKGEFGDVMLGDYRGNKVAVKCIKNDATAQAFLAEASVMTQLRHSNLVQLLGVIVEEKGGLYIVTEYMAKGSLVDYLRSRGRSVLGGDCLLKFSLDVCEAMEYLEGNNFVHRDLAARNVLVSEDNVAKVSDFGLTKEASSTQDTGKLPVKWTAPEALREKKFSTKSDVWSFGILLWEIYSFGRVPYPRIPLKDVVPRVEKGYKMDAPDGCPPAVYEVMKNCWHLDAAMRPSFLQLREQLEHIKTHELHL

# Block 1 — organism: Escherichia coli; strain: ATCC 25955
Compound,MBC
Cc1ccc(N=Nc2c(N)nn3c(-c4ccc(C)cc4)cc(-c4ccc(OCc5ccccc5)cc4)nc23)cc1,31.3 µg/mL
COc1ccc(N=Nc2c(N)nn3c(-c4ccc(Cl)cc4Cl)cc(-c4ccc(OCc5ccccc5)cc4)nc23)cc1,62.5 µg/mL
COc1ccc(N=Nc2c(N)nn3c(-c4ccc(C)cc4)cc(-c4ccc(OCc5ccccc5)cc4)nc23)cc1,31.3 µg/mL

# Other studies, line by line
SMILES,target or system,assay,conditions,endpoint,result
COc1cc(-c2nc3ccccc3c(=O)n2Nc2ccc([N+](=O)[O-])cc2[N+](=O)[O-])ccc1OCc1cn(CC(=O)Nc2ccc(C)cc2C)nn1,mushroom tyrosinase,enzyme activity,"40 µM, added: L-DOPA",inhibition,45.5 ± 8.97%
O=C(O)c1cn(Cc2ccc(C(F)(F)F)cc2)c2ccc(Oc3ccccc3)cc2c1=O,MCF7,,72 h,CC50,79 ± 8.63 µM
COc1cccc(NC(=O)Cn2cc(COc3ccc(-c4nc5ccccc5c(=O)n4Nc4ccc([N+](=O)[O-])cc4[N+](=O)[O-])cc3OC)nn2)c1,mushroom tyrosinase,enzyme activity,"40 µM, added: L-DOPA",inhibition,21.1 ± 5.43%
O=C(O)c1c[nH]c2ccc(Oc3ccccc3)cc2c1=O,Jurkat,,72 h,CC50,21.87 ± 0.18 µM
O=C(Nc1cc(-c2ccc(Cl)cc2)[nH]n1)C1CCCCC1,"Tyrosine-protein kinase CSK (CSK, Homo sapiens, UniProt P41240)","enzyme activity, Dundee kinase panel",10 µM,remaining activity,81%

# Some of these lines once more (other studies, line by line):
SMILES,target or system,assay,conditions,endpoint,result
COc1cc(-c2nc3ccccc3c(=O)n2Nc2ccc([N+](=O)[O-])cc2[N+](=O)[O-])ccc1OCc1cn(CC(=O)Nc2ccc(C)cc2C)nn1,mushroom tyrosinase,enzyme activity,"40 µM, added: L-DOPA",inhibition,45.5 ± 8.97%
